Assay results collected from several papers.
Each line is one published result; not all experiments were run side by side. “And” joins repeats or separate records; there may be more than shown. ± marks the error that the study gave.
EPHA2: Ephrin type-A receptor 2 (EPHA2, Homo sapiens, UniProt P29317)
CD27: CD27 antigen (CD27, Homo sapiens, UniProt P26842)
RPA1 N-terminal domain: Replication protein A 70 kDa DNA-binding subunit, N-terminal domain (RPA1, Homo sapiens, UniProt P27694)
VSIR: V-type immunoglobulin domain-containing suppressor of T-cell activation (VSIR, Homo sapiens, UniProt Q9H7M9)
CD28: CD28 (Homo sapiens, UniProt P10747)
Tumor necrosis factor receptor superfamily member 9: Tumor necrosis factor receptor superfamily member 9 (Homo sapiens, UniProt Q07011)

Chains of the proteins cited; added tags and fusions are not shown. Lines headed by an entry give the natural chain unless they say otherwise; changes in a name come on top. Residues count along the entry.
UniProt P29317, 596-900 limits assumed: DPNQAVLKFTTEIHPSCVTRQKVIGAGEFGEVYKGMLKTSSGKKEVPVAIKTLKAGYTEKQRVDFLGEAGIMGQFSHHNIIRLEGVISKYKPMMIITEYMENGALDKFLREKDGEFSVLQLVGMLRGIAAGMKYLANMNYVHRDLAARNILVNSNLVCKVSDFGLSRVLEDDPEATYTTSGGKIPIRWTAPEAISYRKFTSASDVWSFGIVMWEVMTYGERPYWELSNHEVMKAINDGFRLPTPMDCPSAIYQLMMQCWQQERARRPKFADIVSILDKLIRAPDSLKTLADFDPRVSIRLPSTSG
UniProt P29317, 24-976 limits assumed: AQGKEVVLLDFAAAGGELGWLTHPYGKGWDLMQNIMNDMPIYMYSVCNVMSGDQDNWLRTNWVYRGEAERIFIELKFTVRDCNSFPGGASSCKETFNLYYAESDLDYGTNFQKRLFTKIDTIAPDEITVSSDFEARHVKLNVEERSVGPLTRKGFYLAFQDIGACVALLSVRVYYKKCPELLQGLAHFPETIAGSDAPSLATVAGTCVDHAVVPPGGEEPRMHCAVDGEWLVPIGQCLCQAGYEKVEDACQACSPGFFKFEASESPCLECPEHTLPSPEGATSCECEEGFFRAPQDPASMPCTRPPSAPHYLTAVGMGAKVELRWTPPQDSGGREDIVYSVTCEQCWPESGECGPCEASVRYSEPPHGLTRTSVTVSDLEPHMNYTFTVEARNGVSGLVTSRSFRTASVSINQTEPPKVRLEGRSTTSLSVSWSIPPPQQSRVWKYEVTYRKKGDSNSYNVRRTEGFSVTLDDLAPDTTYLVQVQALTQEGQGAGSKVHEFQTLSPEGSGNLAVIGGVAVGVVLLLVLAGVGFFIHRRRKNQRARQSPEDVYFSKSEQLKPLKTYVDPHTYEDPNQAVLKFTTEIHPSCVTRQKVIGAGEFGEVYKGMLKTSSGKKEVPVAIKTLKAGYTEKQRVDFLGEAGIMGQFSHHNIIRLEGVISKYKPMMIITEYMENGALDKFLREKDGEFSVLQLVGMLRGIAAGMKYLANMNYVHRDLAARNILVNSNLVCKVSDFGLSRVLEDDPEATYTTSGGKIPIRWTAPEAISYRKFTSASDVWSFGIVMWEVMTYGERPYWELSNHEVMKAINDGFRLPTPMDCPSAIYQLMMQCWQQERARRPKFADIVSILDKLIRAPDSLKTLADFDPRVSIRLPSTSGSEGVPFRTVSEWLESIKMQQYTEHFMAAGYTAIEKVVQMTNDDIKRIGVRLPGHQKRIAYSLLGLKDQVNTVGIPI
UniProt Q9H7M9, whole entry, looked up: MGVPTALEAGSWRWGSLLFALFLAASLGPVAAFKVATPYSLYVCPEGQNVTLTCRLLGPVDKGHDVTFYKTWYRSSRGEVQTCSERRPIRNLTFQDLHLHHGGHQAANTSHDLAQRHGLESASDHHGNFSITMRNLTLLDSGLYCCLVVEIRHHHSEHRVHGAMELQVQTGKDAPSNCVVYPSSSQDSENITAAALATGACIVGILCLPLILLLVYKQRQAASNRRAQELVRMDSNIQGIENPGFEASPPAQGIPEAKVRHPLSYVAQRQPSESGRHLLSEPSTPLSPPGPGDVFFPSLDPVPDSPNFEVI
UniProt P10747, whole entry, looked up: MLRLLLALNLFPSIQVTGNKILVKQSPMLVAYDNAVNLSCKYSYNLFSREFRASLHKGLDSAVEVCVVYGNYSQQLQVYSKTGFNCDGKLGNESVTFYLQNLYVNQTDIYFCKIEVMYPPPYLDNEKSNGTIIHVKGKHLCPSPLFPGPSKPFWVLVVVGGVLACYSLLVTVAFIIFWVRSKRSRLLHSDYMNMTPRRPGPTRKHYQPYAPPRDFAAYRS
UniProt Q07011, whole entry, looked up: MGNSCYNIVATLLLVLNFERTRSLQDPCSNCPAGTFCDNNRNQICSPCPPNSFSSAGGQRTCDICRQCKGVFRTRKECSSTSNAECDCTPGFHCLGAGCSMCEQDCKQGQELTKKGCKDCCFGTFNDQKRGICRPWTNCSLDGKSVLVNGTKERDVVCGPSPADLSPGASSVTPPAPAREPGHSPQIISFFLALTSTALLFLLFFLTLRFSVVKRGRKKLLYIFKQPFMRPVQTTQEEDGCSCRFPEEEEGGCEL
UniProt O60502, whole entry: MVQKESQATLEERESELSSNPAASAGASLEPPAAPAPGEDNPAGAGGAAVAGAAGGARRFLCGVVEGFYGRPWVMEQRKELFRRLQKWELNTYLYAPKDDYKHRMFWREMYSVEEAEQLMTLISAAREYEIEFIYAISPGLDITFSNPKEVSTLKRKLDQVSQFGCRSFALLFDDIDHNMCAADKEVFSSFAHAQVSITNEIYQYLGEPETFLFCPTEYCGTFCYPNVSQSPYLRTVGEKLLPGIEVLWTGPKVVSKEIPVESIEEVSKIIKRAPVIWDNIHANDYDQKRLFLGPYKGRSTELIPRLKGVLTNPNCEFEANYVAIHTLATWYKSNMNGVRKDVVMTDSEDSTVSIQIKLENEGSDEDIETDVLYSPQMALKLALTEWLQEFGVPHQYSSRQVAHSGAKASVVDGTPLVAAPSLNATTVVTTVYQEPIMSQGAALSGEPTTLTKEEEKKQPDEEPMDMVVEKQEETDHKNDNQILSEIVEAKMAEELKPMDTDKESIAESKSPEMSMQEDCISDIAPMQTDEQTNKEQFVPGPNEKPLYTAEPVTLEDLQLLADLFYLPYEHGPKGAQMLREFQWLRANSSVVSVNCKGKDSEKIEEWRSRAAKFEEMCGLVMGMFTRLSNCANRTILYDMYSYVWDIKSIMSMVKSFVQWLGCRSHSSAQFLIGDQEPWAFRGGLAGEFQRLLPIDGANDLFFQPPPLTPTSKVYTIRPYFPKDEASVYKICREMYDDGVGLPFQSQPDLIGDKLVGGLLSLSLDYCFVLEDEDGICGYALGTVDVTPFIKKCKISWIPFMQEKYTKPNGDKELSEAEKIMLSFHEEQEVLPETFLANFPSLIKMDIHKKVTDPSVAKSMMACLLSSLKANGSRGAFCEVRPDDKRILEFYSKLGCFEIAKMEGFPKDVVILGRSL
UniProt P62942, whole entry F37V: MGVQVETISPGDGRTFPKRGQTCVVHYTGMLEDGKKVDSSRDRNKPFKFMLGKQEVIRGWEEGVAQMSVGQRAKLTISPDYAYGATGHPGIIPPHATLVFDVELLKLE
UniProt Q9UBZ9, 1158-1251 limits assumed: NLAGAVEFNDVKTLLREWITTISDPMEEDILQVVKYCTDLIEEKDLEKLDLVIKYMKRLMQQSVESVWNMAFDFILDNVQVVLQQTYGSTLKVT
UniProt Q15109, whole entry, looked up: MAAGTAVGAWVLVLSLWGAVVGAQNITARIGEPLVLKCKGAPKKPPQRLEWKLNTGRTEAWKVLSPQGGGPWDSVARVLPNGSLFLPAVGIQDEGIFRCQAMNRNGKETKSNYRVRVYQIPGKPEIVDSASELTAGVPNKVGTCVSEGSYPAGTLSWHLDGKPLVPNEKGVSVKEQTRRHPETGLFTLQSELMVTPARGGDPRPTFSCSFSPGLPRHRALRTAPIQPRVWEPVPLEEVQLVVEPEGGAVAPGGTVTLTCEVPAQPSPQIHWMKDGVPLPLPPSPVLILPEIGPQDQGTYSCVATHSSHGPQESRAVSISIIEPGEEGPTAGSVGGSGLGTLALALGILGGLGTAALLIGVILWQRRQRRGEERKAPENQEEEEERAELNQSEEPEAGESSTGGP
UniProt Q86U86, whole entry, looked up: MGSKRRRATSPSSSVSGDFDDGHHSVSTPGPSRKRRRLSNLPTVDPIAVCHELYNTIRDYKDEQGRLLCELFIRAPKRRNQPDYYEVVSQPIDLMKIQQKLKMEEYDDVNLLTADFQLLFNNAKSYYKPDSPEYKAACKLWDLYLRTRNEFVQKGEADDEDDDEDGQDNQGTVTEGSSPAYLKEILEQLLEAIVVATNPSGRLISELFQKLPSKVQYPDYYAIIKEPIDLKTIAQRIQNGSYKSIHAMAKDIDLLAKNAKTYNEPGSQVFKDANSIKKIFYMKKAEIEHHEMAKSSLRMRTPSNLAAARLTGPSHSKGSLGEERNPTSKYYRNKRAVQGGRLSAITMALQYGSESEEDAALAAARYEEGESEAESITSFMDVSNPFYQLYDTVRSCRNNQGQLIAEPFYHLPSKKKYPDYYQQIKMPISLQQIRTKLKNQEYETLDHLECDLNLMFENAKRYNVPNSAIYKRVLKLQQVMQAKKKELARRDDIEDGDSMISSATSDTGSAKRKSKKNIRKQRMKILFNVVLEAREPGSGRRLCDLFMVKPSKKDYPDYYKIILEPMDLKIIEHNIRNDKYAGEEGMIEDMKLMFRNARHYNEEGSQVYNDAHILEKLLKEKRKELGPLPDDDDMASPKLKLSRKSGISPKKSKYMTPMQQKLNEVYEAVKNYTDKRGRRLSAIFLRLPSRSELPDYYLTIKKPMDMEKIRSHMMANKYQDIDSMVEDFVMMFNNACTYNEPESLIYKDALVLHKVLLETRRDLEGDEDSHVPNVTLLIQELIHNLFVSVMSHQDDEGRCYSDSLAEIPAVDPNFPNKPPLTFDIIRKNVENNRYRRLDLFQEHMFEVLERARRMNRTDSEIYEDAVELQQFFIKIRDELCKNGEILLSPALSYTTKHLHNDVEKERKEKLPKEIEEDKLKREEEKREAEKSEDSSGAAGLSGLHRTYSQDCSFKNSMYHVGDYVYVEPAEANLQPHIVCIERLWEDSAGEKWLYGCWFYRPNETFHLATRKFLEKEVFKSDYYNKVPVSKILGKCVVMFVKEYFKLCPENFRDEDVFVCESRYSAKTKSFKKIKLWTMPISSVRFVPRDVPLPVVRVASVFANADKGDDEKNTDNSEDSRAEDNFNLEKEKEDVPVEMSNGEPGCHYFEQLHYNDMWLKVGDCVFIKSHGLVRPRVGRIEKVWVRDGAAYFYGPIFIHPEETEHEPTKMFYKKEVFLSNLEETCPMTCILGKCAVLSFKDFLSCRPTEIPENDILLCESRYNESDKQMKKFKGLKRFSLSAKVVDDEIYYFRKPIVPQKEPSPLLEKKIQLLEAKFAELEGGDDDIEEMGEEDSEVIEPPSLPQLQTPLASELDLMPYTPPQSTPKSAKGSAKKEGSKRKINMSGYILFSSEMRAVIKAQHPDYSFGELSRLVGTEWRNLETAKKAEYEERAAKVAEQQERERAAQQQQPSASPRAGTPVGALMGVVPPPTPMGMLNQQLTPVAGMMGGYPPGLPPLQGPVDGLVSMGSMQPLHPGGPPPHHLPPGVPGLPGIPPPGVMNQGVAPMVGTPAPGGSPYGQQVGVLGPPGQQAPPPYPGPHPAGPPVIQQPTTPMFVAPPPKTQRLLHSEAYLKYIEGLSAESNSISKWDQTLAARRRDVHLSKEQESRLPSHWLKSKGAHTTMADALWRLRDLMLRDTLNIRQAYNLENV
UniProt O15151, 23-111 limits assumed: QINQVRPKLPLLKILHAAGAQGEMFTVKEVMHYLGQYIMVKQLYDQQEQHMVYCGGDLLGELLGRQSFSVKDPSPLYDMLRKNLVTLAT
UniProt Q06187, whole entry: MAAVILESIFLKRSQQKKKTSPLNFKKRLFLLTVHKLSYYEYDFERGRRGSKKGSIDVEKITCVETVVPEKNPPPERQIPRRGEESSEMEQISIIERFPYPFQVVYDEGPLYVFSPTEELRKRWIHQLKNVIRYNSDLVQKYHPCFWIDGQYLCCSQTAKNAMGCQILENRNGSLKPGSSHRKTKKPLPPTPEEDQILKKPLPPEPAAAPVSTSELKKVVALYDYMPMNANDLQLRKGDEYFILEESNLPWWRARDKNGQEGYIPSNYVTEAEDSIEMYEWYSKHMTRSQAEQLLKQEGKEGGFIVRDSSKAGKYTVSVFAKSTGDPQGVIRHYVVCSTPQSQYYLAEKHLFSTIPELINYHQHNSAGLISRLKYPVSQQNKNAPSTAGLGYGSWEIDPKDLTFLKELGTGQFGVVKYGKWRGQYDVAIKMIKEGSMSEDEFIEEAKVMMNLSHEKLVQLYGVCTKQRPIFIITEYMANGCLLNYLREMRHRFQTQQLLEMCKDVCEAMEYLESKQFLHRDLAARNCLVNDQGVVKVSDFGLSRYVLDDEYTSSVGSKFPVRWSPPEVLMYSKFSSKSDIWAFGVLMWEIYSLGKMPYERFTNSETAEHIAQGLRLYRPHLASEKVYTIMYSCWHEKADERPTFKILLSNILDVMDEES
UniProt Q13029, 3-200 limits assumed: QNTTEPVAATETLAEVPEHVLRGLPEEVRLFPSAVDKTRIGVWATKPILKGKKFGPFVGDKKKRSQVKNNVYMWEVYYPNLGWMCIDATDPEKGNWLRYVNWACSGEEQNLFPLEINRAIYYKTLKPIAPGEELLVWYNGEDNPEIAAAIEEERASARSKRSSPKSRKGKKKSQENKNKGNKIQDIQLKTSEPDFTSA
UniProt Q8TDQ0, whole entry, looked up: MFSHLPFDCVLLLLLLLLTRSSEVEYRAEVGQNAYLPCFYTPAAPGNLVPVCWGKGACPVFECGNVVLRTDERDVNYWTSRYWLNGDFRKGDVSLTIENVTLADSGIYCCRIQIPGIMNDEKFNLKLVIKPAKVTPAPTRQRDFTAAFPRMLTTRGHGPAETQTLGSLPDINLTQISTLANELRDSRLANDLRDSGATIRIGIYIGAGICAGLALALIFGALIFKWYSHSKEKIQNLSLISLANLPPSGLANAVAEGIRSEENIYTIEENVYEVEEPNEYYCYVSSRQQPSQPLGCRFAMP

For Cc1ccc(C(=O)Nc2cccc(C(F)(F)F)c2)cc1Nc1nc(-c2cnccn2)nc2c1cnn2C, the Kd was 135 nM (EPHA2; Kinobeads competition pulldown; mixed cancer cell lysate).
The Kd of O=C(c1ccc2c(c1)OCO2)N1CCCC1c1nnc(-c2nccc3ccccc23)o1 (centres unmarked) is reported as 1230 nM (CD27; binding, microscale thermophoresis).
O=C(CCc1ccccc1)N1CCC(O)(Cn2cnc3cc(Cl)ccc3c2=O)CC1 has a Kd of 8000 nM (USP7 (Homo sapiens, UniProt Q93009); isothermal titration calorimetry; catalytic domain).
Cc1cc(-c2ccc3nc(-c4cnn(CC(C)(C)O)c4)nc(N4CCOC[C@@H]4c4ccccc4)c3c2)cn(C)c1=O (single isomer, unassigned) has a Kd of 20 nM (EP300 (Homo sapiens, UniProt Q09472); binding, BROMOscan competition binding).
Cc1ccc(C(=O)Nc2cccc(Cl)c2)cc1Nc1nc(-c2cccnc2)nc2c1cnn2C has a Kd of 3 nM (EPHA2; binding, microscale thermophoresis; kinase domain; 25 °C, 5% DMSO).
With Cc1ccc(C(=O)Nc2cccc(C)c2C(=O)O)cc1S(=O)(=O)Nc1ccc(Cl)c(Cl)c1 the Kd was 36000 ± 1500 nM (RPA1 N-terminal domain; binding, fluorescence polarisation competition; with: FITC-ATRIP probe).
For CC(=O)Nc1ncc(CN2CC[C@H](Oc3cccc(F)n3)C[C@@H]2C)s1 [isotope labelled], the Kd was 0.7 ± 1.5 nM (Protein O-GlcNAcase (OGA, Homo sapiens, UniProt O60502); saturation binding; human cerebellum homogenate; radiolabelled compound).
C[C@@H]1NCCN([C@@H](C)C(=O)N2CCN([C@@H](C)C(N)=O)C(=O)[C@@H]2C)C1=O has a Kd of greater than 10000 nM (Histone acetyltransferase p300, CH1 domain (EP300, Homo sapiens, UniProt Q09472); intrinsic tryptophan fluorescence).
The Kd of COc1ccc(NC(=O)c2ccc(-n3cnc(NC(=O)C4CC4)c3)cc2)cc1OC is reported as 5620 nM (VSIR; microscale thermophoresis).
For Cc1ccc(C(=O)Nc2ccc(Br)cc2C(=O)O)cc1S(=O)(=O)Nc1ccc(Br)cc1, the Kd was 20000 ± 3500 nM (RPA1 N-terminal domain; binding, fluorescence polarisation competition; with: FITC-ATRIP probe).
CC(=O)Nc1ccc(NC(=O)C(C)Sc2nnc(Nc3ccccc3F)s2)cc1 (centres unmarked) gave a Kd of 57800 ± 9800 nM (CD28; binding, microscale thermophoresis).
O=C(Nc1ccccc1C(=O)O)c1cccc(S(=O)(=O)Nc2ccc(Cl)c(Cl)c2)c1 gave a Kd of 17000 ± 1000 nM (RPA1 N-terminal domain; binding, fluorescence polarisation competition; with: FITC-ATRIP probe).
CC[C@H](C(=O)N1CCCC[C@H]1C(=O)O[C@H](CCc1ccc(OC)c(OC)c1)c1cccc(OCC(=O)OC(C)(C)C)c1)c1cc(OC)c(OC)c(OC)c1 gave a Kd of 16 nM (FKBP1A (Homo sapiens, UniProt P62942, F37V); binding, surface plasmon resonance).
CC(CC(=O)OCc1ccc(-n2cccn2)cc1)c1ccncc1 (centres unmarked) has a Kd of 50300 ± 13100 nM (CD28; microscale thermophoresis; 2% DMSO).
With O[C@@H]1[C@H](O)[C@@H]2C[C@@H]2[C@H]1n1cnc2c(NCc3cccc([125I])c3)nc(Cl)nc21 the Kd was 2.53 ± 0.11 nM (Adenosine receptor A3 (Oryctolagus cuniculus, UniProt O02667); binding, saturation binding; HEK293 cell membranes; 2 h, room temperature).
With Cc1cccc(N=Nc2ccc(N)cc2N)c1C the Kd was 2900 ± 400 nM (DNA repair protein REV1, C-terminal domain (Homo sapiens, UniProt Q9UBZ9); microscale thermophoresis; cis-trans isomer mixture, with: labelled DNA repair protein REV1 20 nM).
For CCc1ccc(NC(=O)Nc2nnc(Sc3nc4c(c(=O)n(C)c(=O)n4C)n3C)s2)cc1, the Kd was 42.5 nM (Cyclin-dependent kinase 8, with cyclin C (CDK8, Homo sapiens, UniProt P49336); binding, reporter displacement).
With CN1C(=N)NC(=O)/C1=C/c1cc(Br)c(O)c(Br)c1 the Kd was 26 nM (Transthyretin (TTR, Homo sapiens, UniProt P02766); binding, isothermal titration calorimetry; first site, two-site model).
For Cc1[nH]c2c(C#N)cnn2c(=O)c1C(C)C, the Kd was 25 to 50 nM (KDM5A (Homo sapiens, UniProt P29375, del88-347); binding, isothermal titration calorimetry).
Cc1n[nH]c(C)c1CCOC(=O)c1cccc2c1oc(=O)n2C has a Kd of 12500 ± 3700 nM (CD28; microscale thermophoresis; 2% DMSO).
With COc1ccc(NS(=O)(=O)c2cc(C(=O)Nc3ccccc3C(=O)O)ccc2C)cc1 the Kd was 234000 ± 3000 nM (RPA1 N-terminal domain; binding, fluorescence polarisation competition; with: FITC-ATRIP probe).
CC(C)CN(CC(=O)N(CC(=O)N(CC(=O)N(CC(=O)N(CC(=O)N(CC(=O)N(CC(N)=O)Cc1ccccc1)Cc1ccccc1)CC(C)C)Cc1ccccc1)Cc1ccccc1)CC(C)C)C(=O)CNCCCCN gave a Kd of 58 ± 12 nM (Advanced glycosylation end product-specific receptor, extracellular domain (AGER, Homo sapiens, UniProt Q15109)).
For C/C=C/Cn1c(Cc2cc(OC)c(OC)c(OC)c2)nc2c(N)ncnc21, the Kd was 2000 ± 140 nM (Heat shock protein HSP 90-alpha, N-terminal domain (HSP90AA1, Homo sapiens, UniProt P07900); isothermal titration calorimetry; 298 K, N-terminal domain).
With Cc1cccc(C2NC(=O)c3c(Cl)cccc3N2)c1 (racemic) the Kd was 2000 ± 1000 nM (Protein polybromo-1, BD2 (PBRM1, Homo sapiens, UniProt Q86U86); ITC; wild type, racemate).
Cc1ccc(C(=O)Nc2ccc(C(C)C)cc2C(=O)O)cc1S(=O)(=O)Nc1ccc(Cl)c(Cl)c1 has a Kd of 3000 ± 12 nM (RPA1 N-terminal domain; binding, fluorescence polarisation competition; with: FITC-ATRIP probe).
With CC(C)Oc1cc(C#N)ccc1C1=N[C@@H](c2cccc(Cl)c2)[C@@H](c2ccc(Cl)cc2)N1C(=O)N1CCNC(=O)C1 the Kd was 600 nM and < 1000 nM (Protein Mdm4 (MDM4, Homo sapiens, UniProt O15151); isothermal titration calorimetry; 298 K).
For CCCCCCCCCCCCCCCCCC(=O)O[C@@H](CN=[N+]=[N-])[C@H](COP(=O)(O)O)OC(=O)CCCCCCCCCCCCCCCCC, the Kd was 730 ± 130 nM (Protein kinase C alpha type, C2 domain (PRKCA, Homo sapiens, UniProt P17252); PKCα C2 domain binding, surface plasmon resonance; POPC:POPE:PA 55:40:5 vesicles; pH 7.4, 25 °C, 5 mol% PA, with: 1 mM CaCl2).
Cc1ccc(NC(=O)c2ccc(C)c(S(=O)(=O)Nc3ccc(Cl)c(Cl)c3)c2)c(C(=O)O)c1 has a Kd of 7000 ± 500 nM (RPA1 N-terminal domain; binding, fluorescence polarisation competition; with: FITC-ATRIP probe).
The Kd of Cc1cccc(NC(=O)c2ccc(C)c(Nc3nc(-c4cccnc4)nc4c3cnn4C)c2)c1 is reported as 3 nM (EPHA2; binding, microscale thermophoresis; kinase domain; 25 °C, 5% DMSO).
The Kd of Cc1ccc(C(=O)Nc2ccc(Br)cc2C(=O)O)cc1S(=O)(=O)Nc1cccc(Cl)c1 is reported as 14000 ± 500 nM (RPA1 N-terminal domain; binding, fluorescence polarisation competition; with: FITC-ATRIP probe).
For Cc1n[nH]c(C)c1C(NC(=O)c1cccc2c(C)c(C)[nH]c12)C(=O)O (centres unmarked), the Kd was 9750 nM (CD27; binding, microscale thermophoresis).
Nc1ncnc2c1c(-c1ccc(C(=O)Nc3cc(OC(F)(F)F)ccn3)cc1)nn2[C@@H]1CCCN(C(=O)C2CC2)C1 gave a Kd of 1 ± 0.07 nM (Tyrosine-protein kinase BTK, non-phosphorylated (BTK, Homo sapiens, UniProt Q06187); TR-FRET binding kinetics; 37 °C, unphosphorylated enzyme).
The Kd of O=C1CC(N2CCN(c3ncc(C(F)(F)F)cc3Cl)CC2)C(=O)N1c1ccc(Cl)cc1 (centres unmarked) is reported as 7520 nM (VSIR; microscale thermophoresis).
For O=C(CCCCCCC(=O)Nc1ccc(-c2c3ccc(=O)cc-3oc3cc(O)ccc23)c(C(=O)O)c1)NO, the Kd was greater than 40000 nM (HDAC6 (Homo sapiens, UniProt Q9UBN7); binding, fluorescence anisotropy; low affinity nonspecific site).
NS(=O)(=O)c1ccc(Cc2c(-c3cccc(-c4ccccc4)c3)nn(-c3nc(C(=O)O)cs3)c2C2CC2)c(F)c1 gave a Kd of 0.79 nM (LDHA (Homo sapiens, UniProt P00338); binding, SPR; with: NADH).
For COc1ccccc1CN(CCCO)C(=O)Nc1ccc(C)s1, the Kd was 13500 nM (Tumor necrosis factor receptor superfamily member 9; binding, microscale thermophoresis).
For Cc1c(=O)n(C)c(Nc2ccc(I)cc2F)c2c(=O)n(C3CC3)c(=O)n(-c3cccc(NC(=O)CCNC(=O)CCOCCOCCOCCOCCOCCOCCOCCOCCOCCOCCOCCOCCNC(=O)CCCCC4SCC5NC(=O)NC54)c3)c12 (centres unmarked), the Kd was 131 ± 9.4 nM (MAP2K1 (Oryctolagus cuniculus, UniProt P29678, S298N/S299K/Y300F); biolayer interferometry; 25 °C, with: ATP 1 mM).
N[C@@H](CCSC[C@H]1O[C@@H](n2cnc3c(NCCCCNC(=O)CC(NC(=O)c4ccc(C5(C(F)(F)F)N=N5)cc4)C(=O)NCCCOCCOCCOCCCNC(=S)Nc4ccc5c(c4)C(=O)OC54c5ccc(O)cc5Oc5cc(O)ccc54)ncnc32)[C@H](O)[C@@H]1O)C(=O)O (some centres unmarked) has a Kd of 10100 ± 2870 nM (PR domain zinc finger protein 2 (PRDM2, Homo sapiens, UniProt Q13029); binding, fluorescence anisotropy).
Cc1ccc(NC(=O)c2ccc(C)c(S(=O)(=O)Nc3ccc(Br)cc3)c2)c(C(=O)O)c1 gave a Kd of 33000 ± 2000 nM (RPA1 N-terminal domain; binding, fluorescence polarisation competition; with: FITC-ATRIP probe).
O=S(=O)(O)c1cccc(-n2nc3ccc4cc(S(=O)(=O)O)ccc4c3n2)c1 gave a Kd of 595000 nM (UBC, ubiquitin (Homo sapiens, UniProt P0CG48); binding, NMR titration).
With Cc1cc(C)c2[nH]c(C)c(CC(=O)NCCCCc3ccccn3)c2c1 the Kd was 1140 nM (Hepatitis A virus cellular receptor 2 (Homo sapiens, UniProt Q8TDQ0); microscale thermophoresis).
For CC(=O)N[C@H]1[C@@H](O[C@H](C)[C@H](N)C(=O)O)O[C@H](CO)[C@H](O)[C@@H]1O, the Kd was 3000 nM (CLEC10A, carbohydrate recognition domain (Homo sapiens, UniProt Q8IUN9); binding, ITC; 293 K).
With CCOC(=O)Cn1ccc2cc(NS(=O)(=O)c3ccc(C(=O)NCC(F)(F)F)cc3)ccc21 the Kd was 8410 nM (Tumor necrosis factor receptor superfamily member 9; binding, microscale thermophoresis).
With COc1ccnc(C(=O)Nc2cccc(-c3nc(C)cc(=O)[nH]3)c2)c1 the Kd was 6700 nM (Cystathionine gamma-synthase 1, chloroplastic (CGS1, Arabidopsis thaliana, UniProt P55217); binding, microscale thermophoresis).

Repeated from above:
Cc1ccc(NC(=O)c2ccc(C)c(S(=O)(=O)Nc3ccc(Cl)c(Cl)c3)c2)c(C(=O)O)c1 has a Kd of 7000 ± 500 nM (RPA1 N-terminal domain; binding, fluorescence polarisation competition; with: FITC-ATRIP probe).
The Kd of Cc1cccc(NC(=O)c2ccc(C)c(Nc3nc(-c4cccnc4)nc4c3cnn4C)c2)c1 is reported as 3 nM (EPHA2; binding, microscale thermophoresis; kinase domain; 25 °C, 5% DMSO).
The Kd of Cc1ccc(C(=O)Nc2ccc(Br)cc2C(=O)O)cc1S(=O)(=O)Nc1cccc(Cl)c1 is reported as 14000 ± 500 nM (RPA1 N-terminal domain; binding, fluorescence polarisation competition; with: FITC-ATRIP probe).
For Cc1n[nH]c(C)c1C(NC(=O)c1cccc2c(C)c(C)[nH]c12)C(=O)O (centres unmarked), the Kd was 9750 nM (CD27; binding, microscale thermophoresis).
Nc1ncnc2c1c(-c1ccc(C(=O)Nc3cc(OC(F)(F)F)ccn3)cc1)nn2[C@@H]1CCCN(C(=O)C2CC2)C1 gave a Kd of 1 ± 0.07 nM (Tyrosine-protein kinase BTK, non-phosphorylated (BTK, Homo sapiens, UniProt Q06187); TR-FRET binding kinetics; 37 °C, unphosphorylated enzyme).
The Kd of O=C1CC(N2CCN(c3ncc(C(F)(F)F)cc3Cl)CC2)C(=O)N1c1ccc(Cl)cc1 (centres unmarked) is reported as 7520 nM (VSIR; microscale thermophoresis).
